Published values of several laboratories.
Values joined by “and” are separate records of one study, mostly repeats; a detail may differ.
Target: Activated CDC42 kinase 1 (TNK2, Homo sapiens, UniProt Q07912)

`C=CC(=O)N1CCCC(n2c(=O)c3ncccc3n(Cc3ccc(Oc4ccccc4)cc3)c2=O)C1` (stereo not shown) has a remaining binding of 87% (cell-free assay, competition with immobilised ligand; 1 µM).
With `O=C(Nc1ccc(Oc2ncnc3[nH]cc(-c4ccccc4)c23)c(F)c1)c1c2n(n(-c3cc(F)ccc3F)c1=O)CCCC2` the inhibition was 8% (enzyme activity, inhibitor; 0.5 µM).
With `CCN1CCN(Cc2ccc(NC(=O)c3ccc(C)c(NC(=O)c4cncc(-c5cnn(C)c5)c4)c3)cc2C(F)(F)F)CC1` the remaining binding was 58% (binding, competition with immobilised ligand; 1 µM).
`CC(C)=CC1OC(C)(C)C2C=C3C(=O)C(Cl)=CC(O)C3C3C(O)C4OC4C(=O)C132` (stereo not shown) gave a remaining binding of 70% (cell-free assay, competition with immobilised ligand; 10 µM).
With `O=C=[N][Ru-4]123([n]4c5ccc(O)cc5c5c6c(c7cc(F)c[n+]1c7c54)C(=O)NC6=O)[S+]1CC[S+]2CC[S+]3CC1` (stereo not shown) the remaining activity was 96% (enzyme activity; 100 nM, human enzyme, together with: 10 µM ATP; baseline: untreated).
`COc1c(Cl)cccc1Nc1c(-c2ccncc2C#C[C@@]2(C)CCCN2C(=O)/C=C/CN(C)C)[nH]c2c1C(=O)NCC2` has a remaining binding of 100% (binding, competition with immobilised ligand; 3 µM).
The remaining binding of `C=C1C[C@]2(C(=O)OC)C=C(C(=O)Nc3cccc(C(=O)Nc4ccc(Nc5nccc(-c6cccnc6)n5)c(C)c4)c3)C(=O)[C@H]1C2` is reported as 94% (binding, competition with immobilised ligand; 1 µM).
The inhibition of `Cc1cccc(O[C@H]2CCC[C@@H](C(C)CNCc3ccncc3)C2)c1` (relative stereo) is reported as -2% (enzyme activity, inhibitor; 10 µM).
With `CN1CCN(c2ccc(Nc3ncc(Cl)c(Nc4ccccc4P(C)(C)=O)n3)cc2Br)CC1` the inhibition was 98% (enzyme activity, inhibitor; 0.1 µM).
Under “activity vs control”, `CNC(=O)C[C@H](Cc1ccc(C#N)cc1)NC(=O)c1cc(-c2ccc(CN[C@H](C)c3ccc(C)cc3)o2)ccc1Cl` is recorded as 106% (enzyme activity, inhibitor; 1 µM).
`Cc1ccc(-c2c(/C=C(\C#N)C(=O)NC(C)C)n(CCCO)c3ncnc(N)c23)cc1` gave a remaining binding of 100% (cell-free assay, competition with immobilised ligand; 1 µM).
`C=CC(=O)Nc1cccc(-c2cnc3[nH]cc(C(=O)NC(C)(C)C)c3n2)c1` has an inhibition of 2% and 4% (kinase activity; 0.1 µM).
Under “activity vs control”, `O=C(Cc1ccc(OCc2ccccc2)cc1)NC1(C(=O)O)CCN(C(=O)c2ccc(-c3cccc(Cl)c3)cc2)CC1` is recorded as 95% (enzyme activity, inhibitor; 10 µM).
The remaining binding of `COc1cc(Nc2nc(C)cc(-c3cnn4nc(OC)ccc34)n2)cc(C(F)(F)F)c1` is reported as 77% (binding, competition with immobilised ligand; 1 µM).
With `Cc1ccc(C(=O)Nc2ccc(CN3CCN(C)CC3)c(C(F)(F)F)c2)cc1C#Cc1cnc2cccnn12` the upper asymptote was 80.4 (target engagement, NanoBRET; human cells).
`NC(=O)[C@@H](O)C[C@H]1CCc2sc3ncnc(O[C@H]4CC[C@H](N5CCOCC5)CC4)c3c21` has an inhibition of 38% (enzyme activity, inhibitor; 10 µM).
`Nc1ncc(-c2cc(-c3cnn(CC(F)(F)F)c3)ncc2F)nc1C(=O)NC1CNCC(F)C1` (stereo not shown) gave a remaining activity of 90% (enzyme activity; 1 µM; baseline: DMSO control).
`CCN1CCN(Cc2ccc(C(=O)Nc3ccc(C)c(NCc4cnc5[nH]ccc5c4OC)c3)cc2C(F)(F)F)CC1` has a remaining binding of 4.8% (binding, competition with immobilised ligand; 1 µM).
For `CNC(=O)C1CCN(c2cc(C)c(F)cc2NC(=O)c2ccc(-c3cc(O)ccc3C)c(C)c2)CC1`, the remaining binding was 41% (binding, competition with immobilised ligand; 1 µM).

Some of these lines once more:
`C=CC(=O)Nc1cccc(-c2cnc3[nH]cc(C(=O)NC(C)(C)C)c3n2)c1` has an inhibition of 2% and 4% (kinase activity; 0.1 µM).
`CC(C)=CC1OC(C)(C)C2C=C3C(=O)C(Cl)=CC(O)C3C3C(O)C4OC4C(=O)C132` (stereo not shown) gave a remaining binding of 70% (cell-free assay, competition with immobilised ligand; 10 µM).
With `O=C(Nc1ccc(Oc2ncnc3[nH]cc(-c4ccccc4)c23)c(F)c1)c1c2n(n(-c3cc(F)ccc3F)c1=O)CCCC2` the inhibition was 8% (enzyme activity, inhibitor; 0.5 µM).
